Assay results pooled from the literature.
± marks the error that the study gave.

The tissue uptake of `C[C@H](O)[C@@H](NC(=O)[C@H]1CCCN1C(=O)[C@@H](CCCCN)NC(=O)[C@@H](CO)NC(=O)[C@@H](Cc1ccc(O)cc1)NC(=O)[C@@H](CC(N)=O)NC(=O)CCOCCOCCOCCNC(=O)CN1CCN(CC(=O)O)CCN(CC(=O)O)CCN(CC(=O)O)CC1)C(=O)N[C@H](CC(=O)O)C(=O)N[C@H](CCCNC(=N)N)C(=O)N[C@H](CCC(N)=O)C(=O)N[C@H](Cc1ccc(O)cc1)C(=O)N[C@H](Cc1c[nH]cn1)C(=O)N[C@H](Cc1ccccc1)C(N)=O` [copper-64 labelled] is reported as 2.34 ± 0.38 %ID/g (C57BL/6J mouse, blood; intravenous, 1.85 MBq, 0.3333 h).
For `CC[C@H](C)[C@H](NC(=O)[C@H](CCCCN)NC(=O)CNC(=O)[C@H](CC(C)C)NC(=O)[C@H](Cc1ccccc1)NC(=O)[C@H](CCCCN)NC(=O)[C@H](CO)NC(=O)[C@H](Cc1ccccc1)NC(=O)[C@H](Cc1c[nH]c2ccccc12)NC(=O)[C@H](CCC(N)=O)NC(=O)[C@@H](NC(=O)[C@H](Cc1ccccc1)NC(=O)CCCCCNC(=O)CN1CCN(CC(=O)O)CCN(CC(=O)O)CCN(CC(=O)O)CC1)C(C)C)C(=O)N[C@@H](CCC(=O)O)C(=O)N1CCC[C@H]1C(=O)N[C@@H](CC(=O)O)C(=O)N[C@H](C(=O)N[C@@H](CO)C(=O)N[C@@H](CCC(N)=O)C(=O)N[C@H](C(=O)N[C@@H](CCC(N)=O)C(=O)N[C@@H](CC(=O)O)C(=O)N1CCC[C@H]1C(=O)N[C@@H](CC(N)=O)C(=O)N[C@@H](CC(=O)O)C(=O)N[C@@H](CCC(N)=O)C(=O)N[C@@H](Cc1ccc(O)cc1)C(=O)N[C@@H](CCC(=O)O)C(=O)N1CCC[C@H]1C(=O)N[C@@H](Cc1ccccc1)C(=O)O)C(C)C)C(C)C` [copper-64 labelled], the tissue uptake was 8.4 ± 0.07 %ID/g (C57BL/6 mice, male, tumour-free, small intestine; 0.5 h).
The tissue uptake of `CC[C@H](C)[C@H](NC(=O)[C@@H](Cc1c[nH]c2ccccc12)NC(=O)[C@@H]1CCCN1C(=O)[C@H](CCCCN)NC(=O)[C@H](CCCCN)NC(=O)CCNC(=O)CCNC(=O)CN1CCN(CC(=O)O)CCN(CC(=O)O)CCN(CC(=O)O)CC1)C(=O)N[C@@H](C[Si](C)(C)C)C(=O)O` [gallium-68 labelled] is reported as 0.28 ± 0.17 %ID/g (nude mouse HT-29 xenograft, salivary glands; 90 min).
With `CN1Cc2cc(Cl)ccc2-n2c(nnc2C2CCN(c3cccc([18F])n3)CC2)C1` the tissue uptake was 3.14 ± 0.28 %ID/g (C57BL/6 mouse male, thymus; intravenous, 3.7 MBq, 15 min).
The tissue uptake of `CC[C@H](C)[C@H](NC(=O)[C@H](CCCNC(=N)N)NC(=O)[C@H](CCCCN)NC(=O)[C@H](Cc1ccc(O)cc1)NC(=O)[C@H](CC(=O)O)NC(=O)[C@H](C)NC(=O)CNC(=O)CCOCCOCCOCCNC(=O)CN1CCN(CC(=O)O)CCN(CC(=O)O)CCN(CC(=O)O)CC1)C(=O)N[C@H](C(=O)N[C@@H](CC(C)C)C(=O)N[C@@H](CCCCN)C(=O)N[C@H](C(=O)N[C@@H](CC(N)=O)C(N)=O)C(C)C)[C@@H](C)O` [copper-64 labelled] is reported as 0.058 ± 0.009 %ID/g (ex vivo gamma counting; C57BL/6J male mice, B16-F10 tumour, brain; intravenous, 1.85 MBq, 100 min).
The tissue uptake of `CCCC[C@H]1C(=O)N(C)[C@@H](CCCC)C(=O)N[C@@H](CCCNC(=O)CN2CCN(CC(=O)O)CCN(CC(=O)O)CCN(CC(=O)O)CC2)C(=O)N[C@H](C(=O)NCC(N)=O)CSCC(=O)N[C@@H](Cc2ccc(O)cc2)C(=O)N(C)[C@@H](C)C(=O)N[C@@H](CC(N)=O)C(=O)N2CCC[C@H]2C(=O)N[C@@H](Cc2c[nH]cn2)C(=O)N[C@@H](CC(C)C)C(=O)N(C)CC(=O)N[C@@H](Cc2c[nH]c3ccccc23)C(=O)N[C@@H](CO)C(=O)N[C@@H](Cc2c[nH]c3ccccc23)C(=O)N1C` [gallium-68 labelled] is reported as 1.78 ± 0.1 %ID/g (NOD/SCID mice with CHO-hPD-L1 xenograft, bone; 30 min post injection).
The tissue uptake of `CSCC[C@H](NC(=O)CNC(=O)[C@H](CCCCN)NC(=O)[C@H](CC(C)C)NC(=O)[C@@H]1CCCN1C(=O)[C@H](CO)NC(=O)[C@H](Cc1c[nH]cn1)NC(=O)[C@H](Cc1c[nH]c2ccccc12)NC(=O)[C@H](CCCNC(=N)N)NC(=O)[C@H](CC(C)C)NC(=O)[C@H](CCCNC(=N)N)NC(=O)[C@H](Cc1c[nH]c2ccccc12)NC(=O)[C@H](CS)NC(=O)CCCCCNC(=O)CN1CCN(CC(=O)O)CCN(CC(=O)O)CCN(CC(=O)O)CC1)C(=O)O` [copper-64 labelled] is reported as 1.33 %ID/g (ex vivo biodistribution; male C57BL/6J mice, spleen; intravenous, 1.85 MBq, 18 h, B16-F10 tumour-bearing).
With `CC[C@H](C)[C@H](NC(=O)[C@H](CCCNC(=N)N)NC(=O)[C@H](CCCCN)NC(=O)[C@H](Cc1ccc(O)cc1)NC(=O)[C@H](CC(=O)O)NC(=O)[C@H](C)NC(=O)CNC(=O)CCOCCOCCOCCNC(=O)CN1CCN(CC(=O)O)CCN(CC(=O)O)CCN(CC(=O)O)CC1)C(=O)N[C@H](C(=O)N[C@H](C(=O)N[C@@H](CCCCN)C(=O)N[C@H](C(=O)N[C@@H](CC(N)=O)C(N)=O)C(C)C)C(C)C)[C@@H](C)O` [copper-64 labelled] the tissue uptake was 2.21 ± 0.038 %ID/g (ex vivo gamma counting; C57BL/6J male mice, B16-F10 tumour, lung; intravenous, 1.85 MBq, 40 min).

Some of these lines once more:
The tissue uptake of `CCCC[C@H]1C(=O)N(C)[C@@H](CCCC)C(=O)N[C@@H](CCCNC(=O)CN2CCN(CC(=O)O)CCN(CC(=O)O)CCN(CC(=O)O)CC2)C(=O)N[C@H](C(=O)NCC(N)=O)CSCC(=O)N[C@@H](Cc2ccc(O)cc2)C(=O)N(C)[C@@H](C)C(=O)N[C@@H](CC(N)=O)C(=O)N2CCC[C@H]2C(=O)N[C@@H](Cc2c[nH]cn2)C(=O)N[C@@H](CC(C)C)C(=O)N(C)CC(=O)N[C@@H](Cc2c[nH]c3ccccc23)C(=O)N[C@@H](CO)C(=O)N[C@@H](Cc2c[nH]c3ccccc23)C(=O)N1C` [gallium-68 labelled] is reported as 1.78 ± 0.1 %ID/g (NOD/SCID mice with CHO-hPD-L1 xenograft, bone; 30 min post injection).
